Measurements of several laboratories.
Protocols differ between the studies behind these lines. ± gives the spread as reported.

Compound	host	sample	route	dose	time	added	tissue uptake
N=C(N)NCCC[C@@H]1NC(=O)[C@H](CCCCNC(=O)CNC(=O)CNC(=O)CNC(=O)CC[C@H](NC(=O)CNC(=O)CNC(=O)CNC(=O)c2ccc(NN=Cc3ccccc3S(=O)(=O)O)nc2)C(=O)NCC(=O)NCC(=O)NCC(=O)NCCCC[C@@H]2NC(=O)[C@@H](Cc3ccccc3)NC(=O)[C@H](CC(=O)O)NC(=O)CNC(=O)[C@H](CCCNC(=N)N)NC2=O)NC(=O)[C@@H](Cc2ccccc2)NC(=O)[C@H](CC(=O)O)NC(=O)CNC1=O [technetium-99m labelled]	athymic nu/nu mouse, female, MDA-MB-435 xenograft	liver	intravenous		30 min		3.28 ± 0.44 %ID/g
CCCC[C@H](NC(=O)[C@H](Cc1cccs1)NC(=O)[C@H](Cc1c[nH]cn1)NC(=O)CCNC(=O)[C@@H](NC(=O)[C@H](C)NC(=O)[C@H](Cc1c[nH]c2ccccc12)NC(=O)[C@H](CCC(N)=O)NC(=O)[C@H](Cc1cccs1)NC(=O)CN1CCC(NC(=O)CN(CCN(CCN(CC(=O)O)CC(=O)O)CC(=O)O)CC(=O)O)CC1)C(C)C)C(N)=O [indium-111 labelled]	Swiss nu/nu mouse, male, PC-3 tumour xenograft	pancreas	intravenous	10 pmol	4 h		11.4 ± 2.5 %ID/g
N=C(N)NCCC[C@@H]1NC(=O)[C@H](CC(=O)NC23CNCCNCC(N)(CNCCNC2)CNCCNC3)NC(=O)[C@@H](Cc2ccccc2)NC(=O)[C@H](CC(=O)O)NC(=O)CNC1=O [copper-64 labelled]	Nu/Nu mouse, male, tumour-bearing	heart	intravenous	10 µCi	4 h		0.23 ± 0.09 %ID/g
CCCC[C@H](NC(=O)CNC(=O)CNC(=O)CNC(=O)c1ccc(NN)nc1)C(=O)N[C@H]1CC(=O)NCCCC[C@@H](C(N)=O)NC(=O)[C@H](Cc2c[nH]c3ccccc23)NC(=O)[C@H](CCCNC(=N)N)NC(=O)[C@@H](Cc2ccccc2)NC(=O)[C@H](Cc2c[nH]cn2)NC1=O [technetium-99m labelled]	C57 mouse, B16/F1 melanoma	urine	intravenous	0.037 MBq	2 h		93.9 ± 1.47 %ID
N=C(N)NCCC[C@@H]1NC(=O)[C@H](CCCCNC(=O)CCOCCOCCOCCOCCNC(=O)CC[C@H](NC(=O)[C@H](CCCCNC(=O)c2ccc(NN)nc2)NC(=O)c2ccc(NN)nc2)C(=O)NCCOCCOCCOCCOCCC(=O)NCCCC[C@@H]2NC(=O)[C@@H](Cc3ccccc3)NC(=O)[C@H](CC(=O)O)NC(=O)CNC(=O)[C@H](CCCNC(=N)N)NC2=O)NC(=O)[C@@H](Cc2ccccc2)NC(=O)[C@H](CC(=O)O)NC(=O)CNC1=O [technetium-99m labelled]	athymic nude mouse, female, U-87 MG xenograft	tumor	intravenous	0.1 MBq	1 h		9.74 ± 1.65 %ID/g
N=C(N)NCCC[C@@H]1NC(=O)[C@H](CCCCNC(=O)CNC(=O)CNC(=O)CNC(=O)c2ccc(NN=Cc3ccccc3S(=O)(=O)O)nc2)NC(=O)[C@@H](Cc2ccccc2)NC(=O)[C@H](CC(=O)O)NC(=O)CNC1=O [technetium-99m labelled]	athymic nu/nu mouse, female, U-87 MG glioma xenograft	kidney	intravenous		120 min		3.75 ± 0.48 %ID/g
CSCC[C@H](NC(=O)[C@H](CC(C)C)NC(=O)[C@H](Cc1c[nH]cn1)NC(=O)CNC(=O)[C@@H](NC(=O)[C@H](C)NC(=O)[C@H](Cc1c[nH]c2ccccc12)NC(=O)[C@H](CCC(N)=O)NC(=O)CCCCCNC(=O)CNC(=O)CNC(=O)CNC(=O)CSC(C)=O)C(C)C)C(N)=O [technetium-99m labelled]	Swiss mouse	bone	intravenous	18.5 MBq	5 min		0.51 ± 0.09 %ID/g
CCCC[C@H](NC(=O)CNC(=O)CNC(=O)c1ccc(NN)nc1)C(=O)N[C@H]1CC(=O)NCCCC[C@@H](C(N)=O)NC(=O)[C@H](Cc2c[nH]c3ccccc23)NC(=O)[C@H](CCCNC(=N)N)NC(=O)[C@@H](Cc2ccccc2)NC(=O)[C@H](Cc2c[nH]cn2)NC1=O [technetium-99m labelled]	C57 mouse, B16/F1 melanoma-bearing	bone	intravenous		4 h		0.09 ± 0.01 %ID/g
N=C(N)NCCC[C@@H]1NC(=O)[C@H](CCCCNC(=O)CNC(=O)CNC(=O)CNC(=O)CC[C@H](NC(=O)c2ccc(NN=Cc3ccccc3S(=O)(=O)O)nc2)C(=O)NCC(=O)NCC(=O)NCC(=O)NCCCC[C@@H]2NC(=O)[C@@H](Cc3ccccc3)NC(=O)[C@H](CC(=O)O)NC(=O)CNC(=O)[C@H](CCCNC(=N)N)NC2=O)NC(=O)[C@@H](Cc2ccccc2)NC(=O)[C@H](CC(=O)O)NC(=O)CNC1=O [technetium-99m labelled]	athymic nu/nu mouse, female, MDA-MB-435 xenograft	liver	intravenous		30 min		4.2 ± 0.42 %ID/g
CCCC[C@H](NC(=O)CCCCCCCNC(=O)c1ccc(NN)nc1)C(=O)N[C@H]1CC(=O)NCCCC[C@@H](C(N)=O)NC(=O)[C@H](Cc2c[nH]c3ccccc23)NC(=O)[C@H](CCCNC(=N)N)NC(=O)[C@@H](Cc2ccccc2)NC(=O)[C@H](Cc2c[nH]cn2)NC1=O [technetium-99m labelled]	C57 mouse, B16/F1 melanoma	spleen			2 h	NDP-MSH 10 µg (6.07 nmol) co-injected	0.17 ± 0.11 %ID/g
N=C(N)NCCC[C@@H]1NC(=O)[C@H](CCCCNC(=O)CCOCCOCCOCCOCCNC(=O)CC[C@H](NC(=O)CCOCCOCCOCCOCCNC(=O)CC[C@H](NC(=O)CN2CCN(CC(=O)O)CCN(CC(=O)O)CCN(CC(=O)O)CC2)C(=O)NCCOCCOCCOCCOCCC(=O)N[C@@H](CCC(=O)NCCOCCOCCOCCOCCC(=O)NCCCC[C@@H]2NC(=O)[C@@H](Cc3ccccc3)NC(=O)[C@H](CC(=O)O)NC(=O)CNC(=O)[C@H](CCCNC(=N)N)NC2=O)C(=O)NCCOCCOCCOCCOCCC(=O)NCCCC[C@@H]2NC(=O)[C@@H](Cc3ccccc3)NC(=O)[C@H](CC(=O)O)NC(=O)CNC(=O)[C@H](CCCNC(=N)N)NC2=O)C(=O)NCCOCCOCCOCCOCCC(=O)NCCCC[C@@H]2NC(=O)[C@@H](Cc3ccccc3)NC(=O)[C@H](CC(=O)O)NC(=O)CNC(=O)[C@H](CCCNC(=N)N)NC2=O)NC(=O)[C@@H](Cc2ccccc2)NC(=O)[C@H](CC(=O)O)NC(=O)CNC1=O [indium-111 labelled]	athymic nude mouse U-87 MG xenograft	eyes	intravenous		1 h	RGD2 co-injected 14 mg/kg	0.1 %ID/g
N=C(N)NCCC[C@@H]1NC(=O)[C@H](CCCCNC(=O)CNC(=O)CNC(=O)CNC(=O)CC[C@H](NC(=O)CNC(=O)CNC(=O)CNC(=O)[C@H](CCCCNC(=O)c2ccc(NN)nc2)NC(=O)c2ccc(NN)nc2)C(=O)NCC(=O)NCC(=O)NCC(=O)NCCCC[C@@H]2NC(=O)[C@@H](Cc3ccccc3)NC(=O)[C@H](CC(=O)O)NC(=O)CNC(=O)[C@H](CCCNC(=N)N)NC2=O)NC(=O)[C@@H](Cc2ccccc2)NC(=O)[C@H](CC(=O)O)NC(=O)CNC1=O [technetium-99m labelled]	athymic nude mouse, female, U-87 MG xenograft	intestine	intravenous	0.1 MBq	1 h		6.87 ± 2.98 %ID/g
CSCC[C@H](NC(=O)[C@H](CC(C)C)NC(=O)[C@H](Cc1c[nH]cn1)NC(=O)CNC(=O)[C@@H](NC(=O)[C@H](C)NC(=O)[C@H](Cc1c[nH]c2ccccc12)NC(=O)[C@H](CCC(N)=O)NC(=O)[C@H](CC(N)=O)NC(=O)CNC(=O)[C@H](Cc1ccc(O)cc1)NC(=O)[C@H](CCCNC(=N)N)NC(=O)[C@H](CCC(N)=O)NC(=O)[C@@H]1CCCN1C(=O)CN1CCN(CC(=O)O)CCN(CC(=O)O)CCN(CC(=O)O)CC1)C(C)C)C(N)=O [indium-111 labelled]	Swiss nu/nu mouse, male, PC-3 tumour xenograft	pancreas	intravenous	10 pmol	1 h		9 ± 2.5 %ID/g

Repeated from above:
Compound	host	sample	route	dose	time	added	tissue uptake
CCCC[C@H](NC(=O)CNC(=O)CNC(=O)c1ccc(NN)nc1)C(=O)N[C@H]1CC(=O)NCCCC[C@@H](C(N)=O)NC(=O)[C@H](Cc2c[nH]c3ccccc23)NC(=O)[C@H](CCCNC(=N)N)NC(=O)[C@@H](Cc2ccccc2)NC(=O)[C@H](Cc2c[nH]cn2)NC1=O [technetium-99m labelled]	C57 mouse, B16/F1 melanoma-bearing	bone	intravenous		4 h		0.09 ± 0.01 %ID/g
N=C(N)NCCC[C@@H]1NC(=O)[C@H](CCCCNC(=O)CNC(=O)CNC(=O)CNC(=O)c2ccc(NN=Cc3ccccc3S(=O)(=O)O)nc2)NC(=O)[C@@H](Cc2ccccc2)NC(=O)[C@H](CC(=O)O)NC(=O)CNC1=O [technetium-99m labelled]	athymic nu/nu mouse, female, U-87 MG glioma xenograft	kidney	intravenous		120 min		3.75 ± 0.48 %ID/g
